Measurements pooled from the literature.
Numbered parts are unrelated; each lists some results of a single study. Changes are numbered by the printed parent chain.
UniProt Q9C0B0, sequence (30-357, looked up): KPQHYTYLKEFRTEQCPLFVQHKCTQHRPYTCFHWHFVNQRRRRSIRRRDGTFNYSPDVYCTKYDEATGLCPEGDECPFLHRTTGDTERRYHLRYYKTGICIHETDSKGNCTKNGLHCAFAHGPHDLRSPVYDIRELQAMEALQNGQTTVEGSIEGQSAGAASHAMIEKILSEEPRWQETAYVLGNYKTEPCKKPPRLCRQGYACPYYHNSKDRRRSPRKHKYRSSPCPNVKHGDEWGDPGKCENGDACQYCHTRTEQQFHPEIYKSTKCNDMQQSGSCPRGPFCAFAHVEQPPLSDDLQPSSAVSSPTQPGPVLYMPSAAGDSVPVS

Set 1 — method: RNA Bind-n-Seq; form: RNA; matrix: in vitro; concentration: 1 µM; setting: whole 134-nt RNA, ends assumed; added: 150 mM KCl; baseline: input library; reading: higher = stronger binding
Target: Ras GTPase-activating protein-binding protein 1, RRM domain (G3BP1, Homo sapiens, UniProt Q13283)
UniProt Q13283, sequence (whole entry, looked up): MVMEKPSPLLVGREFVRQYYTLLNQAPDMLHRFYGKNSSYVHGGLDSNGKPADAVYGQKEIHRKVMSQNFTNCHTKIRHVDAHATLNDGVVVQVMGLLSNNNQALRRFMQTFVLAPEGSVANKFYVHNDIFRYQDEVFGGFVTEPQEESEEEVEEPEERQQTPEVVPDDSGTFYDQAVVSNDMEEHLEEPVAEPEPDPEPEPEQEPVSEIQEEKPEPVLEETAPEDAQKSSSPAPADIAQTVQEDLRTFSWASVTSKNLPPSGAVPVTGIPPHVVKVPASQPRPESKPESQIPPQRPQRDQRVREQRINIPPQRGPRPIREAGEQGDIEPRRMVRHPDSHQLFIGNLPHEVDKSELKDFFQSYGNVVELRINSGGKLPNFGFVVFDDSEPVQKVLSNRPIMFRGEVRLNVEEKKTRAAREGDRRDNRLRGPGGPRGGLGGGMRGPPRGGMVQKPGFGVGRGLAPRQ
With `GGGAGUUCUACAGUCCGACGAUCCUCAAGUCCUGUGCUACACAUCGUAUGUACCGAAUCGGUGGUGGUUUUUUUGGAAAGUAUUAUGUUACGCCGUUCGGAUCUGCACUUCCAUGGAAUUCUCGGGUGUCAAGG` the log2 enrichment was -0.189.
`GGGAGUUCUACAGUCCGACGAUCUGUGCUACACAUCGUAUGUACCGAAUCGGGGUUUUUUUGGGGUUUUUUUGGGUUUUUUUGGGAAAGUAUUAUGUUACGCCGUUCGGAUCUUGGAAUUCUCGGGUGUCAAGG` gave a log2 enrichment of -0.153.
With `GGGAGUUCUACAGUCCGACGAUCUUACUAGAAAAGGCAGAAGCCCGUGAACGUGAAAGAGAAAAAGAAGAGGCUCGGAAGAUGAAACGAAAAGAAUCUGCAUUUAAGAGUAUGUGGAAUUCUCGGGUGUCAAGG` the log2 enrichment was 0.0683.
The log2 enrichment of `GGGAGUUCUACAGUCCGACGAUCUCCUGUGCUACACAUCGUAUGUACCGAAUCGGGGCCCCCCGGCCCCCCGGCCCCCCGGGGAAAGUAUUAUGUUACGCCGUUCGGAUCUGCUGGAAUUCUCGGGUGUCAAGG` is reported as -0.438.
`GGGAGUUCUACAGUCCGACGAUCAAGUCCUGUGCUACACAUCGUAUGUACCGAAUCGGGUUUUUGGGAAAGGGUUUGGGAAAGUAUUAUGUUACGCCGUUCGGAUCUGCACUUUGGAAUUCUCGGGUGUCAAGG` has a log2 enrichment of 0.428.
With `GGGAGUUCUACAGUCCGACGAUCAAGUCCUGUGCUACACAUCGUAUGUACCGAAUCGGGGAGGGGUGGGGAAAAAGGGGAAAGUAUUAUGUUACGCCGUUCGGAUCUGCACUUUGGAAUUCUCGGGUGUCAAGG` the log2 enrichment was 0.817.
`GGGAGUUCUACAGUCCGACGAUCGCAGGAAGUAAAAACAAAUGGAAAUGCAUCGGAUAGUGGCAGGGGUGGGGGUUGCUAAGGAAAGGGUGGGAUGGGAGUGGGUAAAGAGUUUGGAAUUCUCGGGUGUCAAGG` has a log2 enrichment of 1.26.
The log2 enrichment of `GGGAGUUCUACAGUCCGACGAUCUGGCCCUGGUGGCAUGGGGGGAGGAAGAGGUGGCCUCAUGGAUCGUGGUGGUCCCGGUGGAAUGUUCAGAGGUGGCCGUGGUGGAGACAGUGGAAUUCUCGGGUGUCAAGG` is reported as 1.08.
With `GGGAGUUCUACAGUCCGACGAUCCCUGUGCUACACAUCGUAUGUACCGAAUCGGGUUUUUUUGGUUUUUUUGGGGUUUUUUUGGAAAGUAUUAUGUUACGCCGUUCGGAUCUGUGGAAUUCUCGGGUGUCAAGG` the log2 enrichment was -0.432.
The log2 enrichment of `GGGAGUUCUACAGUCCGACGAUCUAACUUUAGAGGGGGAUCUGAUGGAUAUGGCAGUGGACGUGGAUUUGGGGAUGGCUAUAAUGGGUAUGGAGGAGGACCUGGAGGUGGCAAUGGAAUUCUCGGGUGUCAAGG` is reported as -0.539.

Set 2 — method: protein binding microarray; form: double-stranded DNA, one strand shown; matrix: in vitro; concentration: not given; baseline: not given; reading: higher = stronger binding
Target: Histone acetyltransferase KAT6A, winged helix 1, GST fusion (KAT6A, Homo sapiens, UniProt Q92794, residues 1-85)
Setting: 8-mer, flanks averaged, mean of 2 arrays, mostly near background
Construct (chain): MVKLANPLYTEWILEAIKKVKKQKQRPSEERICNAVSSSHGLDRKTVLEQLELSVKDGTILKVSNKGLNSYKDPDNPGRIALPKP
`ACCAAACG` has an E-score of 0.0549.
`ATCGTGCC` has an E-score of 0.0571.
For `GACAGCGA`, the E-score was 0.108.
For `AGCTTATC`, the E-score was -0.0962.
With `AGACAATA` the E-score was 0.0145.
For `AAAAATCA`, the E-score was -0.0959.
With `CAGGGGCC` the E-score was 0.0938.
For `GCATGGCA`, the E-score was 0.0976.
For `TCACCGGA`, the E-score was -0.0195.
The E-score of `AACATAAT` is reported as -0.0428.
With `ACTGCGAT` the E-score was -0.0165.
`ATACGCGC` gave an E-score of 0.368.
With `CCGAGTAC` the E-score was 0.251.
With `GTCAACCA` the E-score was -0.189.
`CCTGGCCA` gave an E-score of -0.0855.
`GCGAGATA` has an E-score of -0.0106.
`GTCTTCGA` gave an E-score of -0.044.
The E-score of `GCAGGTAA` is reported as 0.0825.

Set 3 — method: RNA Bind-n-Seq; form: RNA; matrix: in vitro; concentration: 365 nM; baseline: no-protein control; reading: higher = stronger binding
Target: RNA binding protein fox-1 homolog 2, RRM domain, GST-SBP tag (RBFOX2, Homo sapiens, UniProt O43251-10, residues 100-194)
Setting: natural RNA segment, single round, ends assumed
Construct (chain): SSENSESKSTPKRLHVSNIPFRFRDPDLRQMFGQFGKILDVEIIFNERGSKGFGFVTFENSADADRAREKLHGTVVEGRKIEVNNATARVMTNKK
`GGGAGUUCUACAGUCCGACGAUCUGGGGAGUAGUGUGGCCAGGGAACUGGAAUCCCUGGUGGAUUUCUGAUUCCUGUGGUGAGAAGGAAAGCUACAGGACCUGGAGAAGGGGAUGCAGAGGCAGGCCUGCUGAUGGAAUUCUCGGGUGCCAA`: “RBNS enrichment (R)” 0.672.
`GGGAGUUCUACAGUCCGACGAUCUAGUCCAGAAGAAUACCUGGCAGUAGAAGAAAUGAAUAUUCAAGAGGAAGAUAAAUGCGAGAGGGCAAUCCUUUACUAUUCUCAUAUUUAUUUAUCUCUCAUUCUGUAUAUGGAAUUCUCGGGUGCCAA`: “RBNS enrichment (R)” 0.311.
`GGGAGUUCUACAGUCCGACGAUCACUUGCUGAUUUUCUGGUUGGAGUGUUUUUUUGUAUUGCCAUAGUCCCUUCCCCCUGAAGCAAUAGCCCCUCCCCACCUCCUGCAAUACGCCUUUCCAAUCUUUAUUGGAUGGAAUUCUCGGGUGCCAA` — result for “RBNS enrichment (R)”: 0.461.
For `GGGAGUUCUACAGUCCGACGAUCGUAUUCUCAUUUUGAGUGACAUUCAGAGGUUCACGUUUGCUUCUCUGCCGAGCAAAGGGAACGUCCUCAGAUUUCCGUCCAUUUCAUUUCUUCAUUAGAGUAAACAGUGGUGGAAUUCUCGGGUGCCAA`, “RBNS enrichment (R)” read 0.224.
For `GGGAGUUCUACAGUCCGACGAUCGGAGCUGAGGGGACGGUCUUCGGCUCCUCUGCACCCCGUGAUUCUGCCCACGCUCCUCCACCACGAGGCACUGACCUGCGUCGGGUGGUGACCGUGGCUGGCGGUCACGCUGGAAUUCUCGGGUGCCAA`, “RBNS enrichment (R)” read 0.224.
For `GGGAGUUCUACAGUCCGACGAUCUAUUUAAGCUCACAUUAGAGUUAAGUUGUAUUUUAUGUUAUUUAUAGAUCUGAAUUUUCUAUGUUUAGCUAUUUAAUGUUAAUUUCCCACAAUCCAUGGGGGCGCUUAGUUGGAAUUCUCGGGUGCCAA`, “RBNS enrichment (R)” read 0.763.
Under “RBNS enrichment (R)”, `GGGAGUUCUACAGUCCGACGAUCUUUUUGUUUUGUGUUUCUUUUUUCUUAAUUUGUGUGAAUUGUACCUAGACAGGUUACAGAUUUAAUUUUCACCUACCAAGGGACAGUCUCCUCCCUGGACAAGGCUCAGUUGGAAUUCUCGGGUGCCAA` is recorded as 0.67.
For `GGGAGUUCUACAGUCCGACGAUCAGGACCAGCCUCUGGAUCAGUCCCUCUCUGCCCCUUCACUUCUGUCUCUAGCUCACUGGCUCUGUGGGCUUGGGCUCUGCCCCUACAACGGCUCUCAGAAGCAUUCACACUGGAAUUCUCGGGUGCCAA`, “RBNS enrichment (R)” read 0.474.
`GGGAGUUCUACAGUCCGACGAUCUUAAUAUCAGUAGCCUAAAUUUAGGAGCACUAUAGUUUUAAAAAUACUUAAUUGGCUACUUUAUUUAACAAUGUUUUAGGGAUGUCGUUCAGUAUCUUUUCCAGUGUUUGUGGAAUUCUCGGGUGCCAA`: “RBNS enrichment (R)” 0.525.
Under “RBNS enrichment (R)”, `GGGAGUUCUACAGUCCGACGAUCUAAUGAAUCCUCUCAGGACAUUGUGUAGCCUAUGGUAAGUACAAAGGGAGAGGAAGACAUUUUGAAUUUUAAGAGCUUUAUUAUCAGUUUAACCCUCCCUAGUUGAAUGUUGGAAUUCUCGGGUGCCAA` is recorded as 0.435.
For `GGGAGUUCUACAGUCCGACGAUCAGUAAUACAUUAUAGUGAAUUCAUGAUCAAGGUUUCCUUAAAUUUAGCAUUGCAUUUCAGUACUGACUGUGUAAGCUAAAUUGCUGAUCCAAAAUAAAAACCCAGACUAGUGGAAUUCUCGGGUGCCAA`, “RBNS enrichment (R)” read 0.295.
`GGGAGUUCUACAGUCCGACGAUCUAGUAUUGUAGUCUUCAUAGAAAUCAUUUCUAGUUACAGAAAAAUUUAACUCCAGAAUAUGGUGAUACAGUUUAUGUUAAGAAACAUAUUUUAAUUUAUUAUGCCAUGAAUGGAAUUCUCGGGUGCCAA`: “RBNS enrichment (R)” 1.6.

Set 4 — target: CCND1, cyclin fold, Cln2 fusion (human); method: yeast growth competition, sequencing; matrix: yeast; setting: weak parent motif; baseline: not given; reading: higher = stronger binding
Parent: ORC1 docking peptide (human); PRARKRLELGNLG
`PRARKRLELGNEG [L12E]`: “normalised enrichment score” -0.0614.
Under “normalised enrichment score”, `PRARKRLELGNLL [G13L]` is recorded as -0.387.
For `PRARKRLSLGNLG [E8S]`, “normalised enrichment score” read -0.114.
For `PRARKRMELGNLG [L7M]`, “normalised enrichment score” read -0.319.
For `PRARKRLELGNRG [L12R]`, “normalised enrichment score” read -0.471.
Under “normalised enrichment score”, `PRAKKRLELGNLG [R4K]` is recorded as -0.644.
`PRARKRLALGNLG [E8A]`: “normalised enrichment score” -0.000894.
`PRARKVLELGNLG [R6V]`: “normalised enrichment score” 0.0699.
Under “normalised enrichment score”, `PRARKRLELFNLG [G10F]` is recorded as 0.329.
For `PRARKRRELGNLG [L7R]`, “normalised enrichment score” read 0.231.
`PRARKRDELGNLG [L7D]`: “normalised enrichment score” 0.157.
`PRARKWLELGNLG [R6W]`: “normalised enrichment score” 0.0459.
For `PRARKRLELGNNG [L12N]`, “normalised enrichment score” read -0.0392.

Set 5 — method: protein-binding microarray; form: double-stranded DNA, one strand shown; matrix: in vitro; concentration: 940 nM top; setting: 60-bp whole probe; added: salmon DNA 0.4 mg/ml; baseline: random background probes; reading: higher = stronger binding; constant ends, left off below: GCCTAGCAC … GTCTTGATTCGCTTGACGCTGCTG
Target: Interferon regulatory factor 5, full length, phosphomimetic (IRF5, Homo sapiens, UniProt Q13568-2, residues 1-514, S451D/S453D/S456D/S462D)
`TTAGAACTGAGTATCTATTAGTGCTAG` — result for “fitted relative affinity”: 0.68 z-score.
Under “fitted relative affinity”, `TCAGATCTCAGACTGGATTAGTGCTAG` is recorded as -0.411 z-score.
Under “fitted relative affinity”, `TTAGATTTGAGTTCCGATTAGTGCTAG` is recorded as 0.775 z-score.
For `TTAGAACTGAATATCGATTAGTGCTAG`, “fitted relative affinity” read -0.0138 z-score.
`TCCATTTTCTAAATTCCCTAGTGCTAG` — result for “fitted relative affinity”: 1.02 z-score.
For `TTAGATTTCAGTATCGACTAGTGCTAG`, “fitted relative affinity” read 3.6 z-score.
`TCAAAAATGCCCTTTTGGACTGTGCTA`: “fitted relative affinity” 0.256 z-score.
Under “fitted relative affinity”, `GTAGGTCTCCTTATCCTTTAGTGCTAG` is recorded as 0.59 z-score.
For `TTAAAACTGGGGTTTCGATTAGTGCTA`, “fitted relative affinity” read 5.67 z-score.
Under “fitted relative affinity”, `TGAGGTTTCCTTCTCCTTTAGTGCTAG` is recorded as 1.13 z-score.
`TAATTTTCATTTTCCAAATGGTGCTAG`: “fitted relative affinity” 1.3 z-score.

Single results of other studies
`GGGAGUUCUACAGUCCGACGAUCCUCUUUUCCAGGUUGGAUGUACUGGAAAAGUCACCGGAAUUGAUCACAUUAAAGAGCCCGCCGAUGACUCAGUAAAUAAUGUCAGGAAGGACGAUCCAACACUUCUGUCUUCAGGGAGAGCAACAGAGGAUUGAGCAUCA` gave a bound/input enrichment of 0.39 ratio (RING finger protein unkempt homolog, zinc fingers 1-6, SBP tag (UNK, Homo sapiens, UniProt Q9C0B0, residues 30-357); RNA Bind-n-Seq; RNA, in vitro; 100 nM, RNA with constant flanks, ends assumed; baseline: input RNA pool, higher = stronger binding).
